# Published values gathered from unrelated publications.
# Compare with care: the assays were run in different laboratories. “And” joins repeats or separate records; there may be more than shown.
# Target: High affinity nerve growth factor receptor (NTRK1, Homo sapiens, UniProt P04629)
Structure (SMILES),assay,setting,inhibition
O=C(Nc1cc(C(F)(F)F)ccc1F)Nc1ccc(C(=O)Nc2ccc3[nH]ncc3c2)cc1C(F)(F)F,"enzyme activity, inhibitor, FRET",1 µM,62.2%
Cc1cccc(O[C@H]2CCC[C@@H](C(C)CNCc3ccncc3)C2)c1 (relative stereo),cell-free assay,1 µM,-1%
C[C@H]1CN(C(=O)c2cn(-c3ccnc(N)n3)c3cc(C#CC4(O)CCCCC4)ccc23)CCN1,"enzyme activity, inhibitor, FRET",1 µM,2%
CCn1cc(C(=O)O)c(=O)c2c(N)c(F)c(NC3CCCCC3)cc21,kinase activity,"0.1 µM, with: ATP at Km",-13.2%
O=C(Nc1ccc(C(=O)Nc2ccc3[nH]ncc3c2)c(Br)c1)Nc1cc(C(F)(F)F)ccc1F,"enzyme activity, inhibitor, FRET",1 µM,80.7%
O=C(Nc1ccc(Oc2ncnc3[nH]cc(-c4ccccc4)c23)c(F)c1)c1c2n(n(-c3cc(F)ccc3F)c1=O)CCCC2,"enzyme activity, inhibitor",0.5 µM,22%
NC(=O)[C@@H](O)C[C@H]1CCc2sc3ncnc(O[C@H]4CC[C@H](N5CCOCC5)CC4)c3c21,"enzyme activity, inhibitor",10 µM,25%
O=C(Nc1ccc(C(=O)Nc2ccc3[nH]ncc3c2)c(Cl)c1)Nc1cc(C(F)(F)F)ccc1F,"enzyme activity, inhibitor, FRET",1 µM,81.7%
CN1CCN(Cc2ccc(-c3ccc(CO[C@H]4CCC[C@@H]4NC(=O)c4cc(-c5cnn(C)c5)cnc4N)cc3)cc2)CC1,"enzyme activity, inhibitor",0.1 µM,32%
COc1ccc(S(=O)(=O)N2CCc3ccccc3C2)cc1N1CCN(C(=O)c2ccc(F)cc2C(F)(F)F)CC1,cell-free assay,1 µM,-4.1%
O=C(Nc1ccc(C(=O)Nc2ccc3[nH]ncc3c2)cc1F)Nc1cc(C(F)(F)F)ccc1F,"enzyme activity, inhibitor, FRET",1 µM,56.6%
C=CC(=O)N1Cc2nc(-c3cc(-c4cc(Cl)cnc4Cl)c(F)cc3F)n(-c3ccncn3)c2C1,cell-free assay,1 µM,-4.1%
C=CC(=O)Nc1cccc(-c2cnc3[nH]cc(C(=O)NC(C)(C)C)c3n2)c1,kinase activity,0.1 µM,8% and 7%
COc1cc(NC(=O)Nc2cc(C(F)(F)F)ccc2F)ccc1C(=O)Nc1ccc2[nH]ncc2c1,"enzyme activity, inhibitor, FRET",1 µM,41.2%
NC(=O)C[C@H]1CCc2sc3ncnc(O[C@H]4CC[C@H](N5CCOCC5)CC4)c3c21,"enzyme activity, inhibitor",10 µM,2%
CN1CC[C@@H](COc2cnc(C#N)cc2-c2ccn3nc(NC(=O)C4CC4)cc3c2)C1,"enzyme activity, inhibitor",1 µM,7%

# A few entries again:
Structure (SMILES),assay,setting,inhibition
C=CC(=O)Nc1cccc(-c2cnc3[nH]cc(C(=O)NC(C)(C)C)c3n2)c1,kinase activity,0.1 µM,8% and 7%
COc1cc(NC(=O)Nc2cc(C(F)(F)F)ccc2F)ccc1C(=O)Nc1ccc2[nH]ncc2c1,"enzyme activity, inhibitor, FRET",1 µM,41.2%
